Measured values gathered from unrelated publications.
Lines come from different studies, so protocols differ. ± marks the error that the study gave.

Compound | target | test | test system | conditions | how to read | quantity | value
O=C(O)[C@H]1O[C@@H](O[C@@H]2c3cc4ccc5cccc6c7ccccc7c(c3C=C[C@H]2O)c4c56)[C@H](O)[C@@H](O)[C@@H]1O | UDP-glucuronosyltransferase 1A7 (UGT1A7, Homo sapiens, UniProt Q9HAW7) | glucuronidation, substrate | UGT-expressing HEK293 homogenate | normalized to UGT expression | – | kcat | 8.33e-05 ± 1.67e-05 s⁻¹
CC(C)(C)CCN1C[C@@H]2[C@@H](CNC(=O)c3cc(Cl)cc(Cl)c3)[C@@H]2C1.Cl | Voltage-dependent L-type calcium channel subunit alpha-1F, exon 47 deletion isoform (Homo sapiens, UniProt O60840) | calcium current, whole-cell patch clamp | HEK-293T cells | 50 nM | – | half-activation voltage | -3.52 ± 2.6 mV
COc1cc(-c2nc3ccc(C(=O)NCCCN(C)C)cc3n2C2CCC2)cc(OC)c1OC | Serine/threonine-protein kinase 36 (STK36, Homo sapiens, UniProt Q9NRP7) | NanoBRET | – | 1 µM | – | target occupancy | 20.2%
CSCC[C@H](NC(=O)[C@H](CO)NC(=O)[C@H](CC(N)=O)NC(=O)[C@H](CC(C)C)NC(=O)[C@H](Cc1c[nH]cn1)NC(=O)[C@H](CCCCN)NC(=O)CNC(=O)[C@H](CCCCN)NC(=O)[C@H](CC(=O)O)NC(=O)[C@H](Cc1c[nH]cn1)NC(=O)[C@H](CC(C)C)NC(=O)[C@H](CC(C)C)NC(=O)[C@H](CCC(N)=O)NC(=O)[C@H](Cc1c[nH]cn1)NC(=O)[C@H](CCC(=O)O)NC(=O)[C@H](CO)NC(=O)[C@@H](NC(=O)[C@H](C)N)C(C)C)C(=O)N[C@@H](CCC(=O)O)C(=O)N[C@@H](CCCNC(=N)N)C(=O)N[C@H](C(=O)N[C@@H](CCC(=O)O)C(=O)N[C@@H](Cc1c[nH]c2ccccc12)C(=O)N[C@@H](CC(C)C)C(=O)N[C@@H](CCCNC(=N)N)C(=O)N[C@@H](CCCCN)C(=O)N[C@@H](CCCCN)C(=O)N[C@@H](CC(C)C)C(=O)N[C@@H](CCC(N)=O)C(=O)N[C@@H](CC(=O)O)C(=O)N[C@H](C(=O)N[C@@H](Cc1c[nH]cn1)C(=O)N[C@@H](CC(N)=O)C(=O)N[C@@H](Cc1ccccc1)C(=O)N[C@@H](CCCCNC(=O)c1ccc2c(c1)C1(OC2=O)c2ccc(N(C)C)cc2Oc2cc(N(C)C)ccc21)C(N)=O)C(C)C)C(C)C | Parathyroid hormone/parathyroid hormone-related peptide receptor (PTH1R, Homo sapiens, UniProt Q03431) | cAMP formation, agonist, GloSensor | HEK293 GP2.3 | – | reference: (1-34) | Emax | 100 ± 2%
CC(=O)NCCN(CC(=O)NCCN(CC(=O)NCCN(CC(=O)NCCC(N)=O)C(=O)C[C@@H](N)Cc1ccccc1)C(=O)C[C@@H](N)Cc1ccccc1)C(=O)C[C@@H](N)CCCNC(=N)N | HIV-1 TAR RNA | – | – | concentration not given | – | heat capacity change ΔCp | -1.6 ± 0.1 kJ/mol/K
Cc1ccnc(-c2cc(C(=O)NCCCCn3cc(CN(CC(N)=O)C(=O)CN(CCCCN)C(=O)CN(CCCCN)C(=O)CN(CC(C)C)C(=O)CN(CCCCN)C(=O)CN(Cc4ccc5c(c4)OCO5)C(=O)CN(C(=O)CN(CCCCN)C(=O)CN(CC(C)C)C(=O)CNCCCCN)C(C)c4ccccc4)nn3)ccn2)c1 (centres unmarked) | recombinant luciferase | – | – | concentration not given, irradiated 10 min | – | luciferase activity | no effect
O=S(=O)(Nc1ccc(O)c2ccccc12)c1ccc(Cl)cc1 | ADP-ribosyl cyclase/cyclic ADP-ribose hydrolase 1 (CD38, Homo sapiens, UniProt P28907) | cyclase activity, fluorometric | – | 50 µM, together with: NGD+ substrate | reference: untreated | remaining activity | 24 ± 3.3%
CSCC[C@H](NC(=O)[C@H](CO)NC(=O)[C@@H](NC(=O)[C@H](CCC(N)=O)NC(C)=O)[C@@H](C)O)C(=O)N[C@H](C(=O)N[C@@H](CC(=O)O)C(=O)N[C@@H](Cc1ccccc1)C(=O)N[C@@H](Cc1ccc(O)cc1)C(=O)N[C@@H](Cc1c[nH]cn1)C(=O)N[C@@H](CO)C(N)=O)[C@@H](C)O | Proliferating cell nuclear antigen (PCNA, Homo sapiens, UniProt P12004) | binding, isothermal titration calorimetry | – | pH 7.4, 25 °C, 300 mM NaCl, together with: p21 peptide | – | entropic term −TΔS | 14.8 ± 3.35 kcal/mol
O=C1CC[C@H](N2Cc3cc(-c4ccn5ncc(Cl)c5n4)ccc3C2=O)C(=O)N1 | Cereblon/Casein kinase I alpha (CSNK1A1/CRBN, Homo sapiens, UniProt P48729+Q96SW2) | degrader, immunoblot | MOLM-13 | 100 nM | – | onset time of degradation | 2 h
C=C1C(=O)O[C@@H]2[C@H]3C(CO)=CC(=O)C3=C(C)C[C@H](OC(=O)Cc3ccc(O)cc3)[C@@H]12 | Alpha-glucosidase MAL12 (MAL12, Saccharomyces cerevisiae S288c, UniProt P53341) | fluorescence quenching | – | 310 K | – | quenching rate constant Kq | 9.11e+11 M⁻¹ s⁻¹
CC(OCCCCCN1C[C@H](O)[C@@H](O)[C@H](O)[C@H]1CO)C(C)(C)C (some centres unmarked) | Beta-glucosidase (GBA2, Homo sapiens, UniProt Q9HCG7) | – | – | – | reference: GBA3 over target | selectivity ratio | 19700

A few entries again:
Compound | target | test | test system | conditions | how to read | quantity | value
CC(OCCCCCN1C[C@H](O)[C@@H](O)[C@H](O)[C@H]1CO)C(C)(C)C (some centres unmarked) | Beta-glucosidase (GBA2, Homo sapiens, UniProt Q9HCG7) | – | – | – | reference: GBA3 over target | selectivity ratio | 19700
